Measured values from different studies.
Compare with care: the assays were run in different laboratories. Values joined by “and” are separate records of one study, mostly repeats; a detail may differ. ± gives the spread as reported.

N#[11C]c1ccc(-c2csc(NN=C3CCCC3)n2)cc1 — radioactivity uptake (C57BL/6 mice, male, bone; intravenous, 3 MBq, 5 min): 1.62 ± 0.26 %ID/g
Cc1ccccc1-c1ccc(-c2nc(-c3ccc(CN(C)CCCC(=O)O)c([18F])c3)no2)cc1C(F)(F)F — tracer uptake (rat, bone; 30 min): 0.11 %ID/g
CC[C@H](C)[C@H](NC(=O)[C@H](CCCCN)NC(=O)CNC(=O)[C@H](CC(C)C)NC(=O)[C@H](Cc1ccccc1)NC(=O)[C@H](CCCCN)NC(=O)[C@H](CO)NC(=O)[C@H](Cc1ccccc1)NC(=O)[C@H](Cc1c[nH]c2ccccc12)NC(=O)[C@H](CCC(N)=O)NC(=O)[C@@H](NC(=O)[C@H](Cc1ccccc1)NC(=O)CCCCCNC(=O)CN1CCN(CC(=O)O)CCN(CC(=O)O)CCN(CC(=O)O)CC1)C(C)C)C(=O)N[C@@H](CCC(=O)O)C(=O)N1CCC[C@H]1C(=O)N[C@@H](CC(=O)O)C(=O)N[C@H](C(=O)N[C@@H](CO)C(=O)N[C@@H](CCC(N)=O)C(=O)N[C@H](C(=O)N[C@@H](CCC(N)=O)C(=O)N[C@@H](CC(=O)O)C(=O)N1CCC[C@H]1C(=O)N[C@@H](CC(N)=O)C(=O)N[C@@H](CC(=O)O)C(=O)N[C@@H](CCC(N)=O)C(=O)N[C@@H](Cc1ccc(O)cc1)C(=O)N[C@@H](CCC(=O)O)C(=O)N1CCC[C@H]1C(=O)N[C@@H](Cc1ccccc1)C(=O)O)C(C)C)C(C)C [copper-64 labelled] — tissue uptake (C57BL/6 mice, lung; vehicle, intratracheal instillation): 3.64 ± 0.2 %ID/g
CSCC[C@H](NC(=O)[C@@H](NC(=O)[C@H](CC(C)C)NC(=O)[C@@H](NC(=O)[C@H](Cc1c[nH]cn1)NC(=O)CCCCCNC(=O)[C@H](CCCNC(=N)N)NC(=O)[C@H](CCCNC(=N)N)NC(=O)[C@H](CCCNC(=N)N)NC(=O)[C@H](CCC(N)=O)NC(=O)[C@H](CCCNC(=N)N)NC(=O)[C@H](CCCNC(=N)N)NC(=O)[C@H](CCCCN)NC(=O)[C@H](CCCCN)NC(=O)[C@H](CCCNC(=N)N)NC(=O)CNC(=O)[C@@H](N)Cc1ccc(O)cc1)C(C)C)C(C)C)C(=O)N[C@@H](CS)C(=O)N[C@@H](C)C(=O)N[C@H](C(N)=O)[C@@H](C)O — Seg (C57BL/6J mice; Alzet osmotic pump, 3 mg/kg, 8 weeks; relative to: leukocytes): 13% and 17% and 8%
CCN(Cc1ccccc1)C(=O)CCc1nc(CN2CCN(C(=O)Cc3ccc(OC)c(OC)c3)CC2)no1 — time to fall (rotarod test; mouse, CCI neuropathic pain model; 1 mg/kg): 1.57 ± 0.15 min
COc1ccc(CNc2ccc3c(c2)S(=O)(=O)C=C3)cc1 — mean corpuscular haemoglobin (male C57BL/6 mice, blood; intraperitoneal, 10 mg/kg, day 8, group average): 15.9 pg
CSCC[C@H](N)C(=O)N[C@@H](C)C(=O)N[C@@H](Cc1c[nH]c2ccccc12)C(=O)N[C@@H](Cc1c[nH]cn1)C(=O)N[C@@H](CC(=O)O)C(=O)N[C@@H](CC(=O)O)C(=O)N[C@@H](CCC(=O)O)C(=O)N[C@@H](CCC(=O)O)C(=O)N[C@@H](Cc1ccccc1)C(=O)N[C@@H](C)C(=O)N[C@@H](CCCNC(=N)N)C(=O)N[C@@H](CCCNC(=N)N)C(=O)N[C@@H](CCCNC(=N)N)C(=O)N[C@@H](CCCNC(=N)N)C(=O)NCCCCCC(=O)NCCCCC(NC(=O)CCCCCNC(=O)[C@H](CCCNC(=N)N)NC(=O)[C@H](CCCNC(=N)N)NC(=O)[C@H](CCCNC(=N)N)NC(=O)[C@H](CCCNC(=N)N)NC(=O)[C@H](C)NC(=O)[C@H](Cc1ccccc1)NC(=O)[C@H](CCC(=O)O)NC(=O)[C@H](CCC(=O)O)NC(=O)[C@H](CC(=O)O)NC(=O)[C@H](CC(=O)O)NC(=O)[C@H](Cc1c[nH]cn1)NC(=O)[C@H](Cc1c[nH]c2ccccc12)NC(=O)[C@H](C)NC(=O)[C@@H](N)CCSC)C(=O)NCCCCC(NC(=O)C(CCCCNC(=O)CCCCCNC(=O)[C@H](CCCNC(=N)N)NC(=O)[C@H](CCCNC(=N)N)NC(=O)[C@H](CCCNC(=N)N)NC(=O)[C@H](CCCNC(=N)N)NC(=O)[C@H](C)NC(=O)[C@H](Cc1ccccc1)NC(=O)[C@H](CCC(=O)O)NC(=O)[C@H](CCC(=O)O)NC(=O)[C@H](CC(=O)O)NC(=O)[C@H](CC(=O)O)NC(=O)[C@H](Cc1c[nH]cn1)NC(=O)[C@H](Cc1c[nH]c2ccccc12)NC(=O)[C@H](C)NC(=O)[C@@H](N)CCSC)NC(=O)CCCCCNC(=O)[C@H](CCCNC(=N)N)NC(=O)[C@H](CCCNC(=N)N)NC(=O)[C@H](CCCNC(=N)N)NC(=O)[C@H](CCCNC(=N)N)NC(=O)[C@H](C)NC(=O)[C@H](Cc1ccccc1)NC(=O)[C@H](CCC(=O)O)NC(=O)[C@H](CCC(=O)O)NC(=O)[C@H](CC(=O)O)NC(=O)[C@H](CC(=O)O)NC(=O)[C@H](Cc1c[nH]cn1)NC(=O)[C@H](Cc1c[nH]c2ccccc12)NC(=O)[C@H](C)NC(=O)[C@@H](N)CCSC)C(N)=O (stereo partly drawn) — tissue distribution (C57BL/6 mouse female, liver; dose not given, 3 h; relative to: total): 7.5% and 5.83% and 6.61%
CCCC[C@H]1C(=O)N(C)[C@@H](CCCC)C(=O)N[C@@H](CCCNC(=O)CN2CCN(CC(=O)O)CCN(CC(=O)O)CCN(CC(=O)O)CC2)C(=O)N[C@H](C(=O)NCC(N)=O)CSCC(=O)N[C@@H](Cc2ccc(O)cc2)C(=O)N(C)[C@@H](C)C(=O)N[C@@H](CC(N)=O)C(=O)N2CCC[C@H]2C(=O)N[C@@H](Cc2c[nH]cn2)C(=O)N[C@@H](CC(C)C)C(=O)N(C)CC(=O)N[C@@H](Cc2c[nH]c3ccccc23)C(=O)N[C@@H](CO)C(=O)N[C@@H](Cc2c[nH]c3ccccc23)C(=O)N1C [gallium-68 labelled] — tissue uptake (NOD/SCID mice with CHO-hPD-L1 xenograft, heart; 30 min post injection): 2.45 ± 0.16 %ID/g
CN[C@H](CC(C)C)C(=O)N[C@H]1C(=O)N[C@@H](CC(N)=O)C(=O)N[C@H]2C(=O)N[C@H]3C(=O)N[C@H](C(=O)N[C@H](C(=O)O)c4cc(O)cc(O)c4-c4cc3ccc4O)[C@H](O)c3ccc(c(Cl)c3)Oc3cc2cc(c3O[C@@H]2O[C@H](CO)[C@@H](O)[C@H](O)[C@H]2O[C@H]2C[C@](C)(NCc3ccc(-c4ccc(Cl)cc4)cc3)[C@H](O)[C@H](C)O2)Oc2ccc(cc2Cl)[C@H]1O — Vd (mouse, plasma; intravenous, 75 mg/kg): 1.24 L/kg
O=C1NC2(CC2)COc2ncc(F)cc2[C@H]2COCCN2c2ccn3ncc1c3n2 — organ-to-brain weight ratio (Sprague-Dawley rat, female, kidneys; oral, 5 mg/kg/day, 4 weeks dosing, end of recovery): 95.2 ± 9.04%
Cc1n[nH]c(C)c1CCCOc1cc(OCCCCCCNCCOCCOCCn2cc(CNc3ccc(C(=O)O)cc3)nn2)cc(C(=O)O)c1 — CSF to plasma ratio (male Sprague Dawley rat, CSF and plasma; subcutaneous, 15 µmol/kg, 30 min): 1.2 and 1.5
C[C@H](O)[C@@H](NC(=O)[C@H]1CCCN1C(=O)[C@@H](CCCCN)NC(=O)[C@@H](CO)NC(=O)[C@@H](Cc1ccc(O)cc1)NC(=O)[C@@H](CC(N)=O)NC(=O)CCOCCOCCOCCNC(=O)CN1CCN(CC(=O)O)CCN(CC(=O)O)CCN(CC(=O)O)CC1)C(=O)N[C@H](CC(=O)O)C(=O)N[C@H](CCCNC(=N)N)C(=O)N[C@H](CCC(N)=O)C(=O)N[C@H](Cc1ccc(O)cc1)C(=O)N[C@H](Cc1c[nH]cn1)C(=O)N[C@H](Cc1ccccc1)C(N)=O [copper-64 labelled] — tissue uptake (C57BL/6J mice, stomach; intravenous, 1.85 MBq, 1 h, radiolabelled): 0.49 ± 0.1 %ID/g

Excerpt of the above:
CSCC[C@H](NC(=O)[C@@H](NC(=O)[C@H](CC(C)C)NC(=O)[C@@H](NC(=O)[C@H](Cc1c[nH]cn1)NC(=O)CCCCCNC(=O)[C@H](CCCNC(=N)N)NC(=O)[C@H](CCCNC(=N)N)NC(=O)[C@H](CCCNC(=N)N)NC(=O)[C@H](CCC(N)=O)NC(=O)[C@H](CCCNC(=N)N)NC(=O)[C@H](CCCNC(=N)N)NC(=O)[C@H](CCCCN)NC(=O)[C@H](CCCCN)NC(=O)[C@H](CCCNC(=N)N)NC(=O)CNC(=O)[C@@H](N)Cc1ccc(O)cc1)C(C)C)C(C)C)C(=O)N[C@@H](CS)C(=O)N[C@@H](C)C(=O)N[C@H](C(N)=O)[C@@H](C)O — Seg (C57BL/6J mice; Alzet osmotic pump, 3 mg/kg, 8 weeks; relative to: leukocytes): 13% and 17% and 8%
